{"data": "Measurements pooled from the literature", "note": "A part holds a random share of what one study measured.", "UniProt Q9UF33, sequence (whole entry, looked up)": "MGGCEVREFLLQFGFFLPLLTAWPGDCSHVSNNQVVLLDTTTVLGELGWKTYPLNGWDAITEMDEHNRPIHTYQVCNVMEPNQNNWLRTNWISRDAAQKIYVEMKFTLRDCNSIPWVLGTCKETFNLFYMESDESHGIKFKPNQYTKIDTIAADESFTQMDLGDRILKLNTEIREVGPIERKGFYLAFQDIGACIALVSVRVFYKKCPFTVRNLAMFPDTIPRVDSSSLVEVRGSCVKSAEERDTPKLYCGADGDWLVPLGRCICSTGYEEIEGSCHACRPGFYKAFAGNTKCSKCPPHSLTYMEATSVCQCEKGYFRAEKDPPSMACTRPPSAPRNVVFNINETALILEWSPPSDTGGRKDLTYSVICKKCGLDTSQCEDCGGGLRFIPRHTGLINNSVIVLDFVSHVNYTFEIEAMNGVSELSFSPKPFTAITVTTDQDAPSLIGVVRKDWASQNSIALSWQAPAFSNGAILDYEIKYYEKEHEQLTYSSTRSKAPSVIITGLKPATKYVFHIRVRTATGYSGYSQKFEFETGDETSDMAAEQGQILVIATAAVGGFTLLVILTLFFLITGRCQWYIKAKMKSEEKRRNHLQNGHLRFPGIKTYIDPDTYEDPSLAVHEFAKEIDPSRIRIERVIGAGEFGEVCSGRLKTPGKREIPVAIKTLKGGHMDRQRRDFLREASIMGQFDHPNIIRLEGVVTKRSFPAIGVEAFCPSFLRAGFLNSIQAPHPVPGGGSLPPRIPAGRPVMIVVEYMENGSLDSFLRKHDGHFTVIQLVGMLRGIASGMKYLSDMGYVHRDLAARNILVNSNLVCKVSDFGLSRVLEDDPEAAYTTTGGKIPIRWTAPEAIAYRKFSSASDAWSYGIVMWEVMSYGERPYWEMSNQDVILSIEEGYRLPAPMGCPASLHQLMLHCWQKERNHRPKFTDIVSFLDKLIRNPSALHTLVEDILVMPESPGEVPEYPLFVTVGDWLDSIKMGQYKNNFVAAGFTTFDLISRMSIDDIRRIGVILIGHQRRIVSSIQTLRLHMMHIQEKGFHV", "UniProt Q6P3R8, sequence (whole entry, looked up)": "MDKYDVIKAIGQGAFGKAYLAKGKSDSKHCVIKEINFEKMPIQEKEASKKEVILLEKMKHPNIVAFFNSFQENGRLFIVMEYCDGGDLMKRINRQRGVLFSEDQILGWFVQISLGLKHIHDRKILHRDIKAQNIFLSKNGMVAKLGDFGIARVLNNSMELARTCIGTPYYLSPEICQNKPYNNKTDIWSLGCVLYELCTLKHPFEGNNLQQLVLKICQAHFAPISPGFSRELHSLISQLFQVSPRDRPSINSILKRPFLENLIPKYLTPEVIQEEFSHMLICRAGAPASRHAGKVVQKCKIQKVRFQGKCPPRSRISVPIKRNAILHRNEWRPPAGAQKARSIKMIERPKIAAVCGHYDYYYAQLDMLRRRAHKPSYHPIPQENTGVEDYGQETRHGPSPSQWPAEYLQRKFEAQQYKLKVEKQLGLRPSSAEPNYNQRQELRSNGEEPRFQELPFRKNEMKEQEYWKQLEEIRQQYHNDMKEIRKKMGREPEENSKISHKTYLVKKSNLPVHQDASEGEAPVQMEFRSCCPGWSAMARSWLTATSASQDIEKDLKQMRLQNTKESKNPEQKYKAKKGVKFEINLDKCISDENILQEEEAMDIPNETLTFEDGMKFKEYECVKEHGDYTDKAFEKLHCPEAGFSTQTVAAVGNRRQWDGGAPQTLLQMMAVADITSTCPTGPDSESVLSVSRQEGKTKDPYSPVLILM", "UniProt Q9Y2H9, sequence (whole entry, looked up)": "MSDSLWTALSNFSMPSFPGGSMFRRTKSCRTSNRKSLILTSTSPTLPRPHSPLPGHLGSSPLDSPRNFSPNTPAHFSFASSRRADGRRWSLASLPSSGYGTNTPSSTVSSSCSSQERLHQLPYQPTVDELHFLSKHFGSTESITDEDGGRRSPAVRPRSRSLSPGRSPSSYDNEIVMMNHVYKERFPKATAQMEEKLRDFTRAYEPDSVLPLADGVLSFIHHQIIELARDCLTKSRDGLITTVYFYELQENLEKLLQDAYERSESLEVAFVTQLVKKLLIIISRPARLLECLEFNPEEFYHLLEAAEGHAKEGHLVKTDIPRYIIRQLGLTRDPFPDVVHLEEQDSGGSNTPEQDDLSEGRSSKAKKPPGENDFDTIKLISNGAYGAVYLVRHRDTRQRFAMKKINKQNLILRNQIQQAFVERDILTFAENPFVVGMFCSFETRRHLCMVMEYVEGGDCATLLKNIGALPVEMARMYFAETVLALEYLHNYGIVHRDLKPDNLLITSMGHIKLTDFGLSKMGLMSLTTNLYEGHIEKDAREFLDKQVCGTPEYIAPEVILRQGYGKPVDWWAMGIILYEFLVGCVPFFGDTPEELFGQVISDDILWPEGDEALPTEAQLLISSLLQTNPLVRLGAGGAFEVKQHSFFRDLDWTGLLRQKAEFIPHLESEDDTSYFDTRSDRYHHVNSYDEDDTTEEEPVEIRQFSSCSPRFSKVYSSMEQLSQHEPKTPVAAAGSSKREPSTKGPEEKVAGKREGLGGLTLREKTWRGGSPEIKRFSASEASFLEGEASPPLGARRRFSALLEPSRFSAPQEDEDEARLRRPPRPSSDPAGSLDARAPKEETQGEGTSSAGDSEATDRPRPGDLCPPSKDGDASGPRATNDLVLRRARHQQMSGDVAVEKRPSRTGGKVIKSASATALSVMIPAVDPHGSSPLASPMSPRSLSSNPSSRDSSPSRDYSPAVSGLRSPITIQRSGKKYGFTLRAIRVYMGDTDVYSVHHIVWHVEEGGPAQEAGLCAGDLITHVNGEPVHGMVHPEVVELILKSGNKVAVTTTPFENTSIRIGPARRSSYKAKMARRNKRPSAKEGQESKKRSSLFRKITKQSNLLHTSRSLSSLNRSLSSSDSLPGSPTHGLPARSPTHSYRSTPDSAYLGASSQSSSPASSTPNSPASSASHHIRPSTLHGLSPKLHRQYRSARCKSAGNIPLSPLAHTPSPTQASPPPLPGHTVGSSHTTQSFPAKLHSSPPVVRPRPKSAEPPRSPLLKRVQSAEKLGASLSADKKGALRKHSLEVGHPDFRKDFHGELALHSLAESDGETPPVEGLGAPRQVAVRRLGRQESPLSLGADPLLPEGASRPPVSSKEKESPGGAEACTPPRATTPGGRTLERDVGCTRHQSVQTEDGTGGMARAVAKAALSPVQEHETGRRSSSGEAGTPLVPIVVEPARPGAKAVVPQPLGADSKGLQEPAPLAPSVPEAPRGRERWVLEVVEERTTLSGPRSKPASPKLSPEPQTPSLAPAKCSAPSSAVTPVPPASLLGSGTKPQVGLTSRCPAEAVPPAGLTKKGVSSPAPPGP", "UniProt P53671, sequence (whole entry, looked up)": "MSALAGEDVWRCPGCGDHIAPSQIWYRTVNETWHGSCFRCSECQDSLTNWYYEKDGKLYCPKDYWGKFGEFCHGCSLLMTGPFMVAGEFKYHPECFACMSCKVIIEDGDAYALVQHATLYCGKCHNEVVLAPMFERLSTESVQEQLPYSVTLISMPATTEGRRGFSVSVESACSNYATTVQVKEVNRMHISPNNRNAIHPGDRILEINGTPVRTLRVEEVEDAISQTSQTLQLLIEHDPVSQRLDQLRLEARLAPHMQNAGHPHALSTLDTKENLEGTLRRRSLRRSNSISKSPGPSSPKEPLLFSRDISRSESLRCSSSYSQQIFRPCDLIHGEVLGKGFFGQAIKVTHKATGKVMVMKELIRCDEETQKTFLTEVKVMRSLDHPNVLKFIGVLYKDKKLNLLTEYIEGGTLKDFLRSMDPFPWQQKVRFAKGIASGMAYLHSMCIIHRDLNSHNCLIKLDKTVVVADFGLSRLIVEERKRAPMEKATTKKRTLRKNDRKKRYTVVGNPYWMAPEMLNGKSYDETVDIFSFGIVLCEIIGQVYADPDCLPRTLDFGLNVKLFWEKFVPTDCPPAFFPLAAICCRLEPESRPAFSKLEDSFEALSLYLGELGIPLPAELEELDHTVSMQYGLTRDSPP", "UniProt Q12851, sequence (whole entry, looked up)": "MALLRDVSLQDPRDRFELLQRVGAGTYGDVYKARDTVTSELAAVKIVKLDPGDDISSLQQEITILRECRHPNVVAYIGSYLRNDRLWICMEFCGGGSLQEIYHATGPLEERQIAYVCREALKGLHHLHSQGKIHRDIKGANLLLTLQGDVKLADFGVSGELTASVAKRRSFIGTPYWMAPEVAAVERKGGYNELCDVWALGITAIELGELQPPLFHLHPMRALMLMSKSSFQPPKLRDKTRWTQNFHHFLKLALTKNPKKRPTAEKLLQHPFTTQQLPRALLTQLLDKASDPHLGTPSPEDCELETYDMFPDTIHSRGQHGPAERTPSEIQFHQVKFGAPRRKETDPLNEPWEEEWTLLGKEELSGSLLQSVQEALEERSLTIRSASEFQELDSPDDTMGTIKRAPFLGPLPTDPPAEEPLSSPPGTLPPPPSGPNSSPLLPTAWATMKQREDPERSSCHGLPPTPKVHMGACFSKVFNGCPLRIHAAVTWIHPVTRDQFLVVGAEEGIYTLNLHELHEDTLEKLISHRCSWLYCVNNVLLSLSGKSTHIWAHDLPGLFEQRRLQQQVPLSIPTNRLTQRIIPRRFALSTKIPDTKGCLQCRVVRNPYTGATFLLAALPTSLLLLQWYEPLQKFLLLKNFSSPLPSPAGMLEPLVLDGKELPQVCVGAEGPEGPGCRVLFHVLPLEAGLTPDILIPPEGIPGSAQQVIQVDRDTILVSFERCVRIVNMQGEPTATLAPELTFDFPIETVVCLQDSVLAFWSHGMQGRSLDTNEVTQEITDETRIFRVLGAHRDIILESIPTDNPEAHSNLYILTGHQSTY"}
{"data": "Study 1", "SMILES": "Cn1cncc1[C@](O)(COc1ccc(C#N)cc1-c1ccc(OC(F)(F)F)cc1)c1ccc(C#N)cc1", "read-out": "cell-free assay", "method": "competition with immobilised ligand", "concentration": "1 µM"}
{"target": "Ephrin type-A receptor 6 (EPHA6, Homo sapiens, UniProt Q9UF33)", "remaining binding [%]": 100}
{"target": "LIM domain kinase 2 (LIMK2, Homo sapiens, UniProt P53671)", "remaining binding [%]": 72}
{"target": "Casein kinase I isoform delta (CSNK1D, Homo sapiens, UniProt P48730)", "remaining binding [%]": 100}
{"target": "Mitogen-activated protein kinase kinase kinase kinase 2 (MAP4K2, Homo sapiens, UniProt Q12851)", "remaining binding [%]": 100}
{"target": "Dual specificity mitogen-activated protein kinase kinase 4 (MAP2K4, Homo sapiens, UniProt P45985)", "remaining binding [%]": 89}
{"target": "Cyclin-dependent kinase 15 (CDK15, Homo sapiens, UniProt Q96Q40)", "remaining binding [%]": 59}
{"target": "Receptor tyrosine-protein kinase erbB-2 (ERBB2, Homo sapiens, UniProt P04626)", "remaining binding [%]": 100}
{"target": "5'-AMP-activated protein kinase catalytic subunit alpha-2 (PRKAA2, Homo sapiens, UniProt P54646)", "remaining binding [%]": 100}
{"target": "Serine/threonine-protein kinase Nek5 (NEK5, Homo sapiens, UniProt Q6P3R8)", "remaining binding [%]": 72}
{"target": "Mast/stem cell growth factor receptor Kit (KIT, Homo sapiens, UniProt P10721, D816H)", "remaining binding [%]": 77}
{"target": "G protein-coupled receptor kinase 3 (GRK3, Homo sapiens, UniProt P35626)", "remaining binding [%]": 48}
{"target": "Receptor-type tyrosine-protein kinase FLT3, autoinhibited (FLT3, Homo sapiens, UniProt P36888)", "remaining binding [%]": 100}
{"target": "Macrophage-stimulating protein receptor (MST1R, Homo sapiens, UniProt Q04912)", "remaining binding [%]": 100}
{"target": "Microtubule-associated serine/threonine-protein kinase 1 (MAST1, Homo sapiens, UniProt Q9Y2H9)", "remaining binding [%]": 92}
{"target": "Cyclin-dependent kinase 17 (CDK17, Homo sapiens, UniProt Q00537)", "remaining binding [%]": 100}
{"data": "Study 2", "cell line": "HEK-293T/ACE2", "read-out": "pseudovirus infection", "method": "counter-screen", "organism": "VSV pseudotyped with VSV-G", "concentration": "10 µM", "time": "16 h", "relative to": "vehicle-treated"}
{"SMILES": "N[C@@H]1CON=C1O", "GFP-positive cells": "121%"}
{"SMILES": "C[C@@H](NCCCc1cccc(C(F)(F)F)c1)c1cccc2ccccc12", "GFP-positive cells": "131%"}
{"SMILES": "CN(CCOc1ccc(CC2SC(=O)NC2=O)cc1)c1ccccn1 (stereo not shown)", "GFP-positive cells": "85.5%"}
{"SMILES": "Cn1c(=O)cc(N2CCC[C@@H](N)C2)n(Cc2ccccc2C#N)c1=O", "GFP-positive cells": "115%"}
{"SMILES": "C[C@H](O)C(=O)Nc1c(I)c(C(=O)NC(CO)CO)c(I)c(C(=O)NC(CO)CO)c1I", "GFP-positive cells": "109%"}
{"SMILES": "CC(C)(C)NCC(O)c1cc(O)cc(O)c1 (stereo not shown)", "GFP-positive cells": "105%"}
{"SMILES": "CC(=O)O[C@H]1C[C@@H]2CC[C@@H]3[C@H](CC[C@@]4(C)[C@H]3C[C@H]([N+]3(C)CCCCC3)[C@@H]4OC(C)=O)[C@@]2(C)C[C@@H]1N1CCCCC1", "GFP-positive cells": "110%"}
{"SMILES": "CCCCC[C@H](O)/C=C/[C@H]1[C@H](O)CC(=O)[C@@H]1CCCCCCC(=O)O", "GFP-positive cells": "110%"}
{"SMILES": "CC(S)C(=O)NCC(=O)O (stereo not shown)", "GFP-positive cells": "99.3%"}
{"SMILES": "Cc1cc(C)cc(OCC2CNC(=O)O2)c1 (stereo not shown)", "GFP-positive cells": "103%"}
{"SMILES": "COc1ccc(Cl)cc1C(=O)NCCc1ccc(S(=O)(=O)NC(=O)NC2CCCCC2)cc1", "GFP-positive cells": "107%"}
{"SMILES": "O=c1ccn([C@@H]2O[C@H](CO)[C@@H](O)[C@H]2O)c(=O)[nH]1", "GFP-positive cells": "99.9%"}
{"SMILES": "C=C1C[C@@H]2[C@H](CC[C@]3(C)C(=O)CC[C@@H]23)[C@@]2(C)C=CC(=O)C=C12", "GFP-positive cells": "111%"}
{"SMILES": "CN(C)CCn1nnnc1SCC1=C(C(=O)O)N2C(=O)[C@@H](NC(=O)Cc3csc(N)n3)[C@H]2SC1", "GFP-positive cells": "108%"}
{"SMILES": "Cc1ccnc2c1NC(=O)c1cccnc1N2C1CC1", "GFP-positive cells": "93%"}
{"SMILES": "CO[C@H]1/C=C/O[C@@]2(C)Oc3c(C)c(O)c4c(O)c(c(/C=N/N5CCN(C6CCCC6)CC5)c(O)c4c3C2=O)NC(=O)/C(C)=C\\C=C\\[C@H](C)[C@H](O)[C@@H](C)[C@@H](O)[C@@H](C)[C@H](OC(C)=O)[C@@H]1C", "GFP-positive cells": "90%"}
{"SMILES": "Nc1c(CC(=O)O)cccc1C(=O)c1ccc(Br)cc1", "GFP-positive cells": "104%"}
{"SMILES": "CC(=O)N(O)CCCCCNC(=O)CCC(=O)N(O)CCCCCNC(=O)CCC(=O)N(O)CCCCCN", "GFP-positive cells": "103%"}
{"SMILES": "CN(C)CC(c1ccc(O)cc1)C1(O)CCCCC1 (stereo not shown)", "GFP-positive cells": "119%"}
{"SMILES": "O=C1[C@H](CC[C@H](O)c2ccc(F)cc2)[C@@H](c2ccc(O)cc2)N1c1ccc(F)cc1", "GFP-positive cells": "98.2%"}
{"SMILES": "CCC(=O)O[C@]1(C(=O)CCl)[C@@H](C)C[C@H]2[C@@H]3CCC4=CC(=O)C=C[C@]4(C)[C@@]3(F)[C@@H](O)C[C@@]21C", "GFP-positive cells": "113%"}
{"SMILES": "CC(N)C12CC3CC(CC(C3)C1)C2 (stereo not shown)", "GFP-positive cells": "112%"}
{"data": "Study 3", "cell line": "HEK-293T-ACE2-TMPRSS2", "method": "cell count", "concentration": "10 µM"}
{"Structure (SMILES)": "COC[C@@H]1CN(S(=O)(=O)c2ccccc2C)C[C@H]1c1nc(C)no1", "viability [%]": 92}
{"Structure (SMILES)": "Fc1ccccc1CN1CCCC(NCc2cccn2-c2nccs2)C1 (stereo not shown)", "viability [%]": 83}
{"Structure (SMILES)": "CCc1c2c(nc3ccc(O)cc13)-c1cc3c(c(=O)n1C2)COC(=O)[C@]3(O)CC", "viability [%]": 93}
{"Structure (SMILES)": "O=C(c1ccc(N2CCC(CO)C2)nc1)N1CCC(CCc2ccccc2)CC1 (stereo not shown)", "viability [%]": 81}
{"Structure (SMILES)": "CCCOC1CCCN(C(=O)c2ccc(OC3CCN(Cc4ccccn4)CC3)cc2)C1 (stereo not shown)", "viability [%]": 104}
{"Structure (SMILES)": "Cc1cc(=O)[nH]c(CCNC(=O)[C@@H](O)c2ccccc2)n1", "viability [%]": 65}
{"Structure (SMILES)": "O=C(c1ccc2nc(C3CCCCC3)oc2c1)N1CCN(c2ccccn2)CC1", "viability [%]": 111}
{"Structure (SMILES)": "Cc1ccc(NC2CCCN(C(=O)c3scc4c3OCCO4)C2)cc1C (stereo not shown)", "viability [%]": 108}
{"Structure (SMILES)": "CC(=O)NC(c1ccc(C)cc1)c1ccc2cccnc2c1O (stereo not shown)", "viability [%]": 75}
{"Structure (SMILES)": "C=CCNC1=C2C[C@@H](C)C[C@H](OC)[C@H](O)[C@@H](C)/C=C(\\C)[C@H](OC(N)=O)[C@@H](OC)/C=C\\C=C(/C)C(=O)NC(=CC1=O)C2=O", "viability [%]": 112}
{"Structure (SMILES)": "O=C(Nc1nc2c(s1)CCC2)c1[nH]nc(C2CC2)c1Br", "viability [%]": 74}
{"Structure (SMILES)": "O=C(CCc1ccccn1)N1CCCC(CNC(=O)C2(c3ccc(Cl)cc3)CC2)C1 (stereo not shown)", "viability [%]": 109}
{"Structure (SMILES)": "CC[C@@]1(O)C(=O)OCc2c1cc1n(c2=O)Cc2cc3cc(O)ccc3nc2-1", "viability [%]": 103}
{"Structure (SMILES)": "O=C(CC(c1ccccc1)c1ccccc1F)N1CCCC1 (stereo not shown)", "viability [%]": 104}
{"Structure (SMILES)": "Cc1cc(C(=O)NC2CC(=O)N(Cc3ccccc3Cl)C2)nc(C)n1 (stereo not shown)", "viability [%]": 96}
{"Structure (SMILES)": "O=C(c1ccncc1F)N1CC(F)(F)C[C@H]1c1nc(C2CC2)no1", "viability [%]": 107}
{"Structure (SMILES)": "COCc1noc([C@@H]2CN(C3CCN(CC(C)C)CC3)C[C@H]2CO)n1", "viability [%]": 98}
{"Structure (SMILES)": "CCC(CC)C(=O)NCC(c1ccc(OC)cc1)N1CCCC1 (stereo not shown)", "viability [%]": 69}
{"Structure (SMILES)": "Cc1cc(Cl)c2c3c(c(=O)oc2c1)CCC3", "viability [%]": 80}
{"Structure (SMILES)": "COc1ccc(NC(=O)N2c3ccccc3CC2c2nc(C(C)C)no2)c(C)c1 (stereo not shown)", "viability [%]": 91}
{"Structure (SMILES)": "Cc1c(-c2ccnc(N3CCN(C)CC3)n2)cnc2nc(-c3ccccc3)nn12", "viability [%]": 104}
{"Structure (SMILES)": "Cc1nc(NCc2csc(C)n2)c2c3c(sc2n1)CCC3", "viability [%]": 88}
{"Structure (SMILES)": "CSc1ccc(CN2CC[C@@H](N3CCN(c4ccccc4F)CC3)[C@H](O)C2)cc1", "viability [%]": 95}
{"Structure (SMILES)": "CC(CNC(=O)c1nc(CCS(=O)(=O)c2ccc(Cl)cc2)no1)c1ccccc1 (stereo not shown)", "viability [%]": 109}
{"Structure (SMILES)": "Cc1nc2cc(-c3cccc4ccnn34)ccc2s1", "viability [%]": 104}
{"data": "Mixed results", "host": "human", "medium": "microsomes or S9", "concentration": "2 µM", "time": "0.5 h"}
{"Structure (SMILES)": "CC(N)Cc1ccccc1[S+]([O-])c1ccccc1 (stereo not shown)", "remaining compound [%]": 79.3}
{"Structure (SMILES)": "Cc1c(C(=O)NC(C(=O)O)C(C)C)c2cc(F)ccc2n1CC(C)(C)O (stereo not shown)", "remaining compound [%]": "> 99"}
{"note": "A few entries again (study 2):"}
{"SMILES": "C[C@H](O)C(=O)Nc1c(I)c(C(=O)NC(CO)CO)c(I)c(C(=O)NC(CO)CO)c1I", "GFP-positive cells": "109%"}
{"SMILES": "CC(C)(C)NCC(O)c1cc(O)cc(O)c1 (stereo not shown)", "GFP-positive cells": "105%"}
{"SMILES": "CC(=O)O[C@H]1C[C@@H]2CC[C@@H]3[C@H](CC[C@@]4(C)[C@H]3C[C@H]([N+]3(C)CCCCC3)[C@@H]4OC(C)=O)[C@@]2(C)C[C@@H]1N1CCCCC1", "GFP-positive cells": "110%"}
{"SMILES": "CCCCC[C@H](O)/C=C/[C@H]1[C@H](O)CC(=O)[C@@H]1CCCCCCC(=O)O", "GFP-positive cells": "110%"}
{"SMILES": "CC(S)C(=O)NCC(=O)O (stereo not shown)", "GFP-positive cells": "99.3%"}
{"SMILES": "Cc1cc(C)cc(OCC2CNC(=O)O2)c1 (stereo not shown)", "GFP-positive cells": "103%"}
